Results pooled from the literature.
Protocols differ between the studies behind these lines. Numbers after ± are the reported error.

SMILES = Cc1ccc(NC(=O)c2ccc(CN3CCN(C)CC3)cc2)cc1Nc1nccc(-c2cncc(-c3oncc3C)c2)n1; system = Parkinson's disease patients, plasma; setting = oral, 50.0 mg once daily, day 7, 7-day dosing, mean; endpoint = Cmax; result = 2560 ng/mL
SMILES = CC[C@H](C)[C@H](NC(=O)[C@H](Cc1ccccc1)NC(=O)[C@H](CCC(=O)O)NC(=O)[C@H](CCCCNC(=O)COCCOCCNC(=O)COCCOCCNC(=O)CC[C@H](NC(=O)CCCCCCCCCCCCCCCCC(=O)O)C(=O)O)NC(=O)[C@H](C)NC(=O)[C@H](C)NC(=O)[C@H](CCC(N)=O)NC(=O)CNC(=O)[C@H](CCC(=O)O)NC(=O)[C@H](CC(C)C)NC(=O)[C@H](Cc1ccc(O)cc1)NC(=O)[C@H](CO)NC(=O)[C@H](CO)NC(=O)[C@@H](NC(=O)[C@H](CC(=O)O)NC(=O)[C@H](CO)NC(=O)[C@@H](NC(=O)[C@H](Cc1ccccc1)NC(=O)[C@@H](NC(=O)CNC(=O)[C@H](CCC(=O)O)NC(=O)C(C)(C)NC(=O)[C@@H](N)Cc1cnc[nH]1)[C@@H](C)O)[C@@H](C)O)C(C)C)C(=O)N[C@@H](C)C(=O)N[C@@H](Cc1c[nH]c2ccccc12)C(=O)N[C@@H](CC(C)C)C(=O)N[C@H](C(=O)N[C@@H](CCCNC(=N)N)C(=O)NCC(=O)N[C@@H](CCCNC(=N)N)C(=O)NCC(=O)O)C(C)C; system = healthy Japanese subjects, plasma; setting = subcutaneous, steady state, once weekly; how to read = baseline: 1.0 mg over 0.5 mg; endpoint = Cmax ratio; result = 2.06
SMILES = CCCN1CC(c2ccc(S(C)(=O)=O)cc2)=C(c2ccc(C)cc2)C1=O; system = healthy Chinese subjects, elderly, plasma; setting = oral, 100 mg single dose; how to read = baseline: non-elderly subjects; endpoint = Cmax increase; result = 39%
SMILES = CC[C@H](C)[C@H](NC(=O)[C@H](CCC(=O)O)NC(=O)[C@H](CO)NC(=O)[C@@H](NC(=O)[C@@H](N)CO)C(C)C)C(=O)N[C@@H](CCC(N)=O)C(=O)N[C@@H](CC(C)C)C(=O)N[C@@H](CCSC)C(=O)N[C@@H](Cc1cnc[nH]1)C(=O)N[C@@H](CC(N)=O)C(=O)N[C@@H](CC(C)C)C(=O)NCC(=O)N[C@@H](CCCCN)C(=O)N[C@@H](Cc1cnc[nH]1)C(=O)N[C@@H](CC(C)C)C(=O)N[C@@H](CC(N)=O)C(=O)N[C@@H](CO)C(=O)N[C@@H](CCSC)C(=O)N[C@@H](CCC(=O)O)C(=O)N[C@@H](CCCN=C(N)N)C(=O)N[C@H](C(=O)N[C@@H](CCC(=O)O)C(=O)N[C@@H](Cc1c[nH]c2ccccc12)C(=O)N[C@@H](CC(C)C)C(=O)N[C@@H](CCCN=C(N)N)C(=O)N[C@@H](CCCCN)C(=O)N[C@@H](CCCCN)C(=O)N[C@@H](CC(C)C)C(=O)N[C@@H](CCC(N)=O)C(=O)N[C@@H](CC(=O)O)C(=O)N[C@H](C(=O)N[C@@H](Cc1cnc[nH]1)C(=O)N[C@@H](CC(N)=O)C(=O)N[C@@H](Cc1ccccc1)C(=O)O)C(C)C)C(C)C; system = postmenopausal osteoporotic women; setting = subcutaneous, 20 µg; how to read = baseline: thigh over abdominal wall injection; endpoint = Cmax reduction; result = 18%
SMILES = O=C(c1cc(Cc2n[nH]c(=O)c3ccccc23)ccc1F)N1CCN(C(=O)C2CC2)CC1; system = cancer patients; setting = oral, 100 mg twice daily, day 1; endpoint = Cmax; result = 1700 ± 800 ng/mL
SMILES = CC(C)(CC(=O)N1CCCC1)NCC(=O)N1C[C@@H](F)C[C@H]1C#N; system = Chinese type 2 diabetes patients, plasma; setting = oral, 50 mg once daily, multiple doses; endpoint = Cmax at steady state; result = 119 ng/mL
SMILES = Cn1c(-c2ccc(C(N)=O)cc2F)nnc1C(C)(C)Oc1c(F)cc(Cl)cc1F; system = young non-Japanese adults, plasma; setting = oral, 50 mg single dose, day 1, high-dose multiple-dose study; endpoint = Cmax median; result = 490 ng/mL
SMILES = CC(C)(CO)c1cc2cc(NC(=O)C3(c4ccc5c(c4)OC(F)(F)O5)CC3)c(F)cc2n1C[C@@H](O)CO; system = healthy subjects, plasma; setting = oral, 25 mg once daily, together with: ivacaftor 50 mg, itraconazole 200 mg; how to read = baseline: with over without itraconazole; endpoint = Cmax ratio; result = 2.83
SMILES = Cc1ccc(Sc2ccccc2N2CCNCC2)c(C)c1; system = healthy men, plasma; setting = oral, 10 mg once daily, fed, day 12; endpoint = Cmax; result = 21.2 ng/mL
SMILES = C[C@]12C=CC(=O)C=C1CC[C@@H]1[C@@H]2[C@@H](O)C[C@@]2(C)[C@H]1C[C@H]1O[C@@H](C3CCCCC3)O[C@]12C(=O)CO; system = children with asthma; setting = inhaled, ciclesonide 80 µg with spacer vs 160 µg without, steady state, dose normalized; how to read = baseline: with spacer over without; endpoint = Cmax ratio; result = 163%
SMILES = COc1cc(OC)c(/C=C/S(=O)(=O)Cc2ccc(OC)c(NCC(=O)O)c2)c(OC)c1; system = cancer patients, phase I, plasma; setting = oral, 560 mg twice daily, day 1 cycle 1; endpoint = Cmax; result = 4040 ± 2970 ng/mL
SMILES = COc1cccc(N2CCN(C3=Nc4c(F)cccc4[C@H](CC(=O)O)N3c3cc(C(F)(F)F)ccc3OC)CC2)c1; system = healthy women, plasma; setting = intravenous, 240 mg once daily, day 14, 30-min infusion; endpoint = Cmax at steady state; result = 15900 ± 1950 ng/mL
SMILES = CC(C)(C(=O)NCC(F)(F)C(F)(F)F)C(=O)N[C@@H]1C(=O)Nc2ccccc2-c2ccccc21; test = item: total drug; system = advanced breast cancer patients, plasma; setting = oral, median; how to read = baseline: combination over alone; endpoint = Cmax ratio; result = 18%
SMILES = CS(=O)(=O)n1cc2c(n1)CN([C@H]1CO[C@H](c3cc(F)ccc3F)[C@@H](N)C1)C2; system = healthy Japanese men, plasma; setting = oral, 25 mg once weekly, day 15; endpoint = Cmax; result = 701 nM
SMILES = Cc1nc(-c2ccc(OCC(C)C)c(C#N)c2)sc1C(=O)O; system = healthy men, plasma; setting = oral, 80 mg, geometric mean ratio, together with: verinurad 2.5 mg; how to read = baseline: with over without verinurad; endpoint = Cmax ratio; result = 96.7%

Repeated from above:
SMILES = CS(=O)(=O)n1cc2c(n1)CN([C@H]1CO[C@H](c3cc(F)ccc3F)[C@@H](N)C1)C2; system = healthy Japanese men, plasma; setting = oral, 25 mg once weekly, day 15; endpoint = Cmax; result = 701 nM
SMILES = Cc1nc(-c2ccc(OCC(C)C)c(C#N)c2)sc1C(=O)O; system = healthy men, plasma; setting = oral, 80 mg, geometric mean ratio, together with: verinurad 2.5 mg; how to read = baseline: with over without verinurad; endpoint = Cmax ratio; result = 96.7%
